Measured values gathered from unrelated publications.
Every numbered part comes from another study and shows a few of its results, in no order. Values joined by “and” are separate records of one study, mostly repeats; a detail may differ.
Sequence of UniProt Q09013 (whole entry, looked up): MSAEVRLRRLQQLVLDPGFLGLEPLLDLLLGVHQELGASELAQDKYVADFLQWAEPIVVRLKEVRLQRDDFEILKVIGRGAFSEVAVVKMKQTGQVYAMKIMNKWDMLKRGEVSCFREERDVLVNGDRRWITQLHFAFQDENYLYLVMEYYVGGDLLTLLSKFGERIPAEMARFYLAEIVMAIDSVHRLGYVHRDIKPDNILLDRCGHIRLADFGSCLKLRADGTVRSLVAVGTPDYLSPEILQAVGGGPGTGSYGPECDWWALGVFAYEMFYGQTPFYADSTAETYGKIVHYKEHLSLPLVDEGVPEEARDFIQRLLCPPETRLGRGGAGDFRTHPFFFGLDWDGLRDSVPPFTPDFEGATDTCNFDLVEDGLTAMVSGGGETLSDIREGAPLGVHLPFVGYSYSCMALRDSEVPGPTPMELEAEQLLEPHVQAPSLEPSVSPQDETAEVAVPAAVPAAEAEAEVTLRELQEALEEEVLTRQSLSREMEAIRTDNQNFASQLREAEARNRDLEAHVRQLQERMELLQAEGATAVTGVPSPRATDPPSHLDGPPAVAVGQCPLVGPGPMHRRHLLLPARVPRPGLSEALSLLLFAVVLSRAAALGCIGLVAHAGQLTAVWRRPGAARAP
Sequence of UniProt P07949 (whole entry, looked up): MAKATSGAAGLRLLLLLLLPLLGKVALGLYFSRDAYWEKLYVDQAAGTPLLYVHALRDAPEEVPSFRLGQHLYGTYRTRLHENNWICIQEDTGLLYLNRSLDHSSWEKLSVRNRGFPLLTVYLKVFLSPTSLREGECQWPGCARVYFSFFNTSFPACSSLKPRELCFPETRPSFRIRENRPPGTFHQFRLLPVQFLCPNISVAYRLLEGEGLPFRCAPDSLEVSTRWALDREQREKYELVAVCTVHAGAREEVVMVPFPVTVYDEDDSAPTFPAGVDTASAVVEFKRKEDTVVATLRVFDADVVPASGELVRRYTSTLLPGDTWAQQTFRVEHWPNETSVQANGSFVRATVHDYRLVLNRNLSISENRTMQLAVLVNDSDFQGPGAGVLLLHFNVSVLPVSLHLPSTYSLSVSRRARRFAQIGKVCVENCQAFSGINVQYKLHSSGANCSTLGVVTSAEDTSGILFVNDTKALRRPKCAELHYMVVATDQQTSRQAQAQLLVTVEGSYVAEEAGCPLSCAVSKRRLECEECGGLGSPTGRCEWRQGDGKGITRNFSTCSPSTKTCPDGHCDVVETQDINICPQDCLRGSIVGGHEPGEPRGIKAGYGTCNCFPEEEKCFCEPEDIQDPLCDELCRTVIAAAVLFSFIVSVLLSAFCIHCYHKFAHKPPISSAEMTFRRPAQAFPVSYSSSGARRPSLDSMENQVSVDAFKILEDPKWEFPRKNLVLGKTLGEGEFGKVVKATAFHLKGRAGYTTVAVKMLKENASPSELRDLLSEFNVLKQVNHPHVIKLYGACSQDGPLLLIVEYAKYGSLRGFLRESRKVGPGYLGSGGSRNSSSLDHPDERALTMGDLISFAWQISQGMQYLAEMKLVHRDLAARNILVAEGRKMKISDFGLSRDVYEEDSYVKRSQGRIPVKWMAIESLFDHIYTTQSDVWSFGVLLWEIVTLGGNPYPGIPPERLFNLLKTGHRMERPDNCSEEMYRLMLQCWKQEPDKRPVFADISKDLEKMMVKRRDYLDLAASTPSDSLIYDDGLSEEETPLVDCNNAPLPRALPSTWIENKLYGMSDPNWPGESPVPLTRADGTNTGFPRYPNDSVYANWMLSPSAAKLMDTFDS
Sequence of UniProt P51956 (whole entry, looked up): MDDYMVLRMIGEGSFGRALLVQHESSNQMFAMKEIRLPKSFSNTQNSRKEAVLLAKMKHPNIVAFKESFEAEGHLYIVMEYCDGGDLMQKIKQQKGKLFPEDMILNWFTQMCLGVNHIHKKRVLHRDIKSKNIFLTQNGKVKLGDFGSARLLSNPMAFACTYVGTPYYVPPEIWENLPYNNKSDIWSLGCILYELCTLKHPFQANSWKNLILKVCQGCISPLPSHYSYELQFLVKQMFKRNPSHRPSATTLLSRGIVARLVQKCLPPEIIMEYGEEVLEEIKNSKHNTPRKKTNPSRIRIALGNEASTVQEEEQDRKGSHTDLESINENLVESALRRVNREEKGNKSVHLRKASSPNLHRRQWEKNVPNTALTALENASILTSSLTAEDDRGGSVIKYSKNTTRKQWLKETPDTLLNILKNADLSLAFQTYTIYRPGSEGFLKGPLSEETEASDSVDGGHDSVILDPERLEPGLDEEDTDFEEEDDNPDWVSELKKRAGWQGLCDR

Study 1
Compound: O=C1CCC(N2Cc3cc(C4CCN(Cc5ccccc5)CC4)ccc3C2=O)C(=O)N1 (centres unmarked)
Mode: degrader
Zinc finger protein Aiolos: Zinc finger protein Aiolos (Homo sapiens, UniProt Q9UKT9)
Sequence of UniProt Q9UKT9 (whole entry, looked up): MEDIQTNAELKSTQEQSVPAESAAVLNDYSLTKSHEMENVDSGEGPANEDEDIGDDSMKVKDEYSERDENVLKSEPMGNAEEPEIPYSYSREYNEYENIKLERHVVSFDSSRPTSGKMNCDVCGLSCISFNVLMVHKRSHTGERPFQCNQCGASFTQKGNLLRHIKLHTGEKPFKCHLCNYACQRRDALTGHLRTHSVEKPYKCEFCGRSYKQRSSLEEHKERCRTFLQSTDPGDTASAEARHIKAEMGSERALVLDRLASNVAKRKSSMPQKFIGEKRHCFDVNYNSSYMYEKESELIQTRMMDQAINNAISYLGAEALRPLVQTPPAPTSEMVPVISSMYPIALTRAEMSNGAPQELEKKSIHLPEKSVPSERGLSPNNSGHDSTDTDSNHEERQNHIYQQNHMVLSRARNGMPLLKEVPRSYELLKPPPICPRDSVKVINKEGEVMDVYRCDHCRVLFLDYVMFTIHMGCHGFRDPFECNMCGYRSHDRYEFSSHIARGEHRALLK
DNA-binding protein Ikaros: DNA-binding protein Ikaros (Homo sapiens, UniProt Q13422)
Sequence of UniProt Q13422 (whole entry, looked up): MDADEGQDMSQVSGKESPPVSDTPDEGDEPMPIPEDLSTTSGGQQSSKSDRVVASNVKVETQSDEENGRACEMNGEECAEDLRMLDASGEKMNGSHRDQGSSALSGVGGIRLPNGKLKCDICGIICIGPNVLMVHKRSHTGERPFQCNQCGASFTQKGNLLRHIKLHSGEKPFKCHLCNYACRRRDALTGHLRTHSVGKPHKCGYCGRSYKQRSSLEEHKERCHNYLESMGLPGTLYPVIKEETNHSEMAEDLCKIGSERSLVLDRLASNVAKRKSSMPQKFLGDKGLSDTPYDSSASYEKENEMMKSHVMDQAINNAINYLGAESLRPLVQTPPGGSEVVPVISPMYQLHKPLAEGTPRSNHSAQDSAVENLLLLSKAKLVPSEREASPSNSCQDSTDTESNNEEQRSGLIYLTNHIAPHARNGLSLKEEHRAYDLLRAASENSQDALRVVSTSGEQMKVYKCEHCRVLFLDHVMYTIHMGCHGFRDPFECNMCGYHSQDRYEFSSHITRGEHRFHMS
SALL4: Sal-like protein 4 (SALL4, Homo sapiens, UniProt Q9UJQ4)
Sequence of UniProt Q9UJQ4 (whole entry, looked up): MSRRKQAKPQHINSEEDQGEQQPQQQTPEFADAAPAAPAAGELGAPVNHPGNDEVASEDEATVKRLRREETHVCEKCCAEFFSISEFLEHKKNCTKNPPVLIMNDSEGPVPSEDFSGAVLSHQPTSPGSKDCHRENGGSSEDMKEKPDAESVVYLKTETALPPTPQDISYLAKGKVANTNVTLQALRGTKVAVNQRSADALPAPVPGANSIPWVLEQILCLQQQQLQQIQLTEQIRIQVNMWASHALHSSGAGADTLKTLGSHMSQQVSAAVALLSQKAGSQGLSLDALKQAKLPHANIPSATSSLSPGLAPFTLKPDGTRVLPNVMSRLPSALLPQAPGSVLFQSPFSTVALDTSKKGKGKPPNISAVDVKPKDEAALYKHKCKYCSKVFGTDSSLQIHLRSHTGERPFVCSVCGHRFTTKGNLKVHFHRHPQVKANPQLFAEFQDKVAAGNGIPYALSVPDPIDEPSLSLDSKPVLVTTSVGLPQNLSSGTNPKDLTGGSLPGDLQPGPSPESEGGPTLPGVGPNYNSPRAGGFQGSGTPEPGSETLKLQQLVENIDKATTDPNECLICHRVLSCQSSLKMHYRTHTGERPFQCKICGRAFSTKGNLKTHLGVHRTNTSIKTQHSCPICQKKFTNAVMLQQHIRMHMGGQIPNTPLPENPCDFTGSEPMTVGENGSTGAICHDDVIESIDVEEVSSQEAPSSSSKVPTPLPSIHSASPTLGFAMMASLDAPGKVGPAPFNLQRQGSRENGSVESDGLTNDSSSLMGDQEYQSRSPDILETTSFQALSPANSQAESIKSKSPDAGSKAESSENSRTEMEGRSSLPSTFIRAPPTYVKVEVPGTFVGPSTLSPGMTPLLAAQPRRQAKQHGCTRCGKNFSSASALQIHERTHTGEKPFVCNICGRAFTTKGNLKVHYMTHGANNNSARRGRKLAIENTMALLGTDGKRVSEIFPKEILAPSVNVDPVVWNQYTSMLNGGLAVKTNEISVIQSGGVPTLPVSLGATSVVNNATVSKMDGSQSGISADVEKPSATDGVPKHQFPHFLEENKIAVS
IKZF4: Zinc finger protein Eos (IKZF4, Homo sapiens, UniProt Q9H2S9)
Sequence of UniProt Q9H2S9 (whole entry, looked up): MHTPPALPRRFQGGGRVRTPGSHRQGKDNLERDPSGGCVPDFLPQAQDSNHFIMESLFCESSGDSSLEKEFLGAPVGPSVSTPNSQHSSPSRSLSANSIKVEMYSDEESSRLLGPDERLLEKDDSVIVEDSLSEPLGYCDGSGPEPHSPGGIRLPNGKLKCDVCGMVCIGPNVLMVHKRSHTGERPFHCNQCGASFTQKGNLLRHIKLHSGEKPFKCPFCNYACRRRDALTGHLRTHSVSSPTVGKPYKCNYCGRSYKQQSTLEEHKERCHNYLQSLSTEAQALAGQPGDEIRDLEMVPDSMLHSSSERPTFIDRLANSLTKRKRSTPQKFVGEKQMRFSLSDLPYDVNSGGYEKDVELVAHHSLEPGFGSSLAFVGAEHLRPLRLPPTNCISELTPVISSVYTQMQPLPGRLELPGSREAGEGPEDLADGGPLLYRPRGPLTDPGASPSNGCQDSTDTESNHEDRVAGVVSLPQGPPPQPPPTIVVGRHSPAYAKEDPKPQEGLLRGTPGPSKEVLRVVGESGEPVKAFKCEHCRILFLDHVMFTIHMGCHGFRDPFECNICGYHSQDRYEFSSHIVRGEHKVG
For Zinc finger protein Aiolos; HiBiT; HEK293; 10 µM, 6 h: remaining protein read 79.8%.
It gave 103% and 98.3% for remaining protein (DNA-binding protein Ikaros; HiBiT; HEK293; 0.0005081 µM).
The remaining protein was 90% (CSNK1A1 (Homo sapiens, UniProt P48729); HiBiT; HEK293; 0.001524 µM, 6 h).
For DNA-binding protein Ikaros; HiBiT; HEK293; 0.0001694 µM: remaining protein read 94.1% and 83.6%.
The remaining protein was 47.9% (SALL4; HiBiT; HEK293; 1.111 µM, 6 h).
For SALL4; HiBiT; HEK293; 0.3704 µM: remaining protein read 52.7% and 51.7%.
SALL4; HiBiT; HEK293; 0.0001694 µM, 6 h — remaining protein: 87.2%.
IKZF4; HiBiT; HEK293; 0.0001524 µM, 3 h — remaining protein: 115%.
For SALL4; HiBiT; HEK293; 0.001524 µM: remaining protein read 70% and 71.5%.
Zinc finger protein Aiolos; HiBiT; HEK293; 1.111 µM, 6 h — remaining protein: 85%.
It gave 113% for remaining protein (IKZF4; HiBiT; HEK293; 0.01235 µM, 6 h).
It gave 95.5% for remaining protein (DNA-binding protein Ikaros; HiBiT; HEK293; 10 µM, 6 h).
The remaining protein was 46.5% (CRBN/Zinc finger protein Helios (Homo sapiens, UniProt Q96SW2+Q9UKS7); flow cytometry; primary human regulatory T cells; 1 µM, 6 h).

Study 2
SMILES: Cc1ccc(NC2=CC(=O)c3sc(C)nc3C2=O)cc1
Observed: enzyme activity
Mode: inhibitor
Tested at: 0.5 µM
Baseline: control
It gave 102% for remaining activity (PRKD1 (Homo sapiens, UniProt Q15139)).
The remaining activity was 80.6% (SLK (Homo sapiens, UniProt Q9H2G2)).
It gave 88.6% for remaining activity (BRSK1 (Homo sapiens, UniProt Q8TDC3)).
It gave 97.9% for remaining activity (DYRK4 (Homo sapiens, UniProt Q9NR20)).
For MAP3K2 (Homo sapiens, UniProt Q9Y2U5): remaining activity read 93.3%.
The remaining activity was 90.2% (PTK2B (Homo sapiens, UniProt Q14289)).
The remaining activity was 106% (GRK5 (Homo sapiens, UniProt P34947)).
For RET (Homo sapiens, UniProt P07949): remaining activity read 97.6%.
For CAMK1G (Homo sapiens, UniProt Q96NX5): remaining activity read 95%.
For MAP3K8 (Homo sapiens, UniProt P41279): remaining activity read 90.2%.
MAPK10 (Homo sapiens, UniProt P53779) — remaining activity: 105%.
For DMPK (Homo sapiens, UniProt Q09013): remaining activity read 103%.
HIPK3 (Homo sapiens, UniProt Q9H422) — remaining activity: 101%.
It gave 100% for remaining activity (CAMK1D (Homo sapiens, UniProt Q8IU85)).
It gave 115% for remaining activity (PKN2 (Homo sapiens, UniProt Q16513)).
The remaining activity was 87.8% (CSNK2A2 (Homo sapiens, UniProt P19784)).
It gave 97.9% for remaining activity (EGFR (Homo sapiens, UniProt P00533)).
The remaining activity was 95.4% (CDK7 (Homo sapiens, UniProt P50613)).
The remaining activity was 107% (ROS1 (Homo sapiens, UniProt P08922)).
NEK9 (Homo sapiens, UniProt Q8TD19) — remaining activity: 99.4%.
It gave 94% for remaining activity (NTRK3 (Homo sapiens, UniProt Q16288)).
Aurora kinase A (AURKA, Homo sapiens, UniProt O14965) — remaining activity: 110%.

Study 3
Structure (SMILES): O=C(NCCCC1CCCCC1)c1ccc(CNC(=O)c2cnn(-c3ccccc3)c2C(F)(F)F)cc1
Observed: cell-free assay
Method: competition with immobilised ligand
Tested at: 0.1 µM
It gave 100% for remaining binding (PIK3CA (Homo sapiens, UniProt P42336)).
LTK (Homo sapiens, UniProt P29376) — remaining binding: 100%.
For WNK1 (Homo sapiens, UniProt Q9H4A3): remaining binding read 100%.
It gave 100% for remaining binding (AKT2 (Homo sapiens, UniProt P31751)).
MAP3K9 (Homo sapiens, UniProt P80192) — remaining binding: 100%.
MATK (Homo sapiens, UniProt P42679) — remaining binding: 100%.
NEK3 (Homo sapiens, UniProt P51956) — remaining binding: 100%.
For TNK1 (Homo sapiens, UniProt Q13470): remaining binding read 88%.
LYN (Homo sapiens, UniProt P07948) — remaining binding: 100%.
For PTK2B (Homo sapiens, UniProt Q14289): remaining binding read 93%.
It gave 100% for remaining binding (EGFR (Homo sapiens, UniProt P00533, del746-750)).
The remaining binding was 100% (SBK1 (Homo sapiens, UniProt Q52WX2)).
For MAP4K5 (Homo sapiens, UniProt Q9Y4K4): remaining binding read 88%.
DCLK1 (Homo sapiens, UniProt O15075) — remaining binding: 100%.
RET (Homo sapiens, UniProt P07949) — remaining binding: 89%.
For PLK2 (Homo sapiens, UniProt Q9NYY3): remaining binding read 100%.
It gave 93% for remaining binding (STK26 (Homo sapiens, UniProt Q9P289)).
It gave 82% for remaining binding (Tyrosine-protein kinase ABL1, phosphorylated (ABL1, Homo sapiens, UniProt P00519, F317L)).

Study 4
Compound: CC(C)S(=O)(=O)c1ccc2nccc(Nc3ccc4sc(C5CCCC5)nc4c3)c2c1
Observed: kinase activity
Mode: inhibitor
Tested at: 1 µM
DMPK (Homo sapiens, UniProt Q09013) — remaining activity: 80%.
For TBK1 (Homo sapiens, UniProt Q9UHD2): remaining activity read 106%.
For PIM1 (Homo sapiens, UniProt P11309): remaining activity read 100%.
For RPS6KB1 (Homo sapiens, UniProt P23443): remaining activity read 110%.
The remaining activity was 82.5% (LIM domain kinase 1 (LIMK1, Homo sapiens, UniProt P53667)).
It gave 80.5% for remaining activity (BLK (Homo sapiens, UniProt P51451)).
For CDK9 (Homo sapiens, UniProt P50750): remaining activity read 100%.
It gave 112% for remaining activity (ACVR1 (Homo sapiens, UniProt Q04771)).
It gave 102% for remaining activity (MKNK2 (Homo sapiens, UniProt Q9HBH9)).
